Published values pooled from the literature.
“And” joins repeats or separate records; there may be more than shown. Numbers after ± are the reported error.

SMILES	cell line	test	conditions	scale	quantity	result
CN1C/C(=C\c2cc(Cl)c(O)c(Cl)c2)C(=O)/C(=C/c2cc(Cl)c(O)c(Cl)c2)C1	PC-12	MTT	range over 3.75 to 60 µM, 24 and 48 h	–	cytotoxicity	not toxic
Cc1nc2cccc(OCC(C)(C)C(=O)NC(C)C)c2c(N)c1C(=O)[O-].[Na+]	human peripheral blood lymphocytes	–	125 g/mL, 3 h, without S9	–	relative mitotic index	89%
O=C1NC2(CC2)COc2ncc(F)cc2[C@H]2COCCN2c2ccn3ncc1c3n2	CHL	–	10 µg/mL, 24 h, without S9	–	numerical aberrations	0%
Cc1c2c(=O)n(-c3ccccn3)n(Cc3c(Cl)cccc3Cl)c2cc(=O)n1Cc1cccc(C(F)(F)F)n1	HEp-2	–	48 (unit not given)	–	CC50	> 5 µM
COC(=O)c1ccc(/C=C/C(=O)c2ccc(O)c(OC)c2)cc1	U-87 MG	cell growth, MTT	72 h	–	IC50	9.63 ± 0.27 µM
CC1(C)C(=CC=C2CCCC(C=CC3=[N+](CCC[N+](C)(C)C)c4ccc(S(=O)(=O)O)cc4C3(C)C)=C2SCCOCCOCCC(=O)O)N(CCC[N+](C)(C)C)c2ccc(S(=O)(=O)O)cc21	H-1793	MTT	up to 100 µM	–	viability	~100%
NCCOCCOCCNC(=O)Cc1ccc(Nc2nc(NCc3ccc(F)cc3)nc(NCC3CCCCC3)n2)cc1	BEAS-2B	cytotoxicity, CCK-8	48 h, 10% FBS	–	IC50	47.6 µM
CN(C)c1ccc(-c2cc(CN3c4ccccc4C=Cc4ccccc43)on2)cc1Cl	BJ	cytotoxicity	–	–	IC50	> 30 µM
COc1cc(Oc2c(O)c(Cl)c(C)c(Cl)c2OC)c(C(=O)O)c(C)c1O	T47D	MTT	10 or 50 µM, 48 h	–	viability	104 ± 5.9%
O=C(O)CCCOc1ccc(O)cc1-c1cc(-c2ccccc2C(F)(F)F)n(-c2ccccc2)n1	human iPSC-derived cardiomyocytes	–	200 µM	–	beat rate	40.1 ± 1.1 min⁻¹
CCNc1cc2c(cc1C)C1(c3cc(C)c(NCC)cc3O2)c2ccccc2C(=O)N1N=Cc1c[c-]c(-c2ccccn2)cc1.Cc1c(C)c(-c2ccc(-c3ccccc3)cc2)[c-](C)c1C.[Cl-].[Ir+3]	A549	annexin V/PI flow cytometry	0.5× IC50, 24 h	–	viable cells	86.41 ± 0.12%
O=C(/C=C/c1cc(Br)ccc1F)c1ccc(O)cc1	U-87 MG	cell growth, MTT	72 h	–	IC50	15.4 ± 0.32 µM
[BH3-][P+]1(c2ccccc2)CCCCC1	HCT-116	trypan blue	IC50, 72 h	–	viability	95.3%
Cc1ccc2ccc(C)c(O)c2n1	MDCK-II low-efflux (RRCK) cells	–	1.5 h, apical to basal	–	Papp	4.1 ×10⁻⁶ cm/s
COc1cc(F)ccc1Cn1c2cc(=O)n(Cc3cccc(N=[N+]=[N-])n3)c(C)c2c(=O)n1-c1ccccn1	HEp-2	cytotoxicity	48 (unit not given)	–	Hill slope	-4.22
O=C(c1ccc(-c2cccc(C(F)(F)F)c2)cc1)N1CCN(c2ncccn2)CC1	MDCK-LE cells	–	time not given, apical to basolateral	–	recovery	43%
Clc1ccc(-c2cc(CN3c4ccccc4C=Cc4ccccc43)on2)cc1	BJ	cytotoxicity	–	–	IC50	> 30 µM
C=CC(=O)Nc1cc(Nc2nccc(-c3cn(C)c4ccccc34)n2)c(OCC(F)(F)F)nc1N(C)CCN(C)C	human hepatocytes lot LTG	CYP1A2 enzyme activity, inducer	0.1 µM	baseline: DMSO	fold induction	1.77
O=C(c1ccc(C23CC(S(F)(F)(F)(F)F)(CO2)C3)cc1)N1CCN(c2ncccn2)CC1	MDCK-LE cells	–	–	–	Papp A-B	32 ×10⁻⁶ cm/s
COc1ccc(CCNC2=CC3=[N+](C)CCc4c[nH]c(c43)C2=O)cc1	HCT-116	cell growth or viability, MTT	72 h	–	CC50	0.2 µM

SMILES	cell line	test	conditions	scale	quantity	result
O=C1c2c(O)cc(O)cc2-c2c(-c3ccc(O)cc3)oc3cc(O)cc1c23	LCC2 shControl cells	label-free MS proteomics, item: CYP1A1	10 µM	baseline: DMSO	protein level ratio	7.02
COc1ccc(Cn2cc(CCO[C@@H]3O[C@H]4[C@H](OC[C@H]4O)[C@H]3O)nn2)cc1	HCT-116	cytotoxicity, CellTiter-Glo	up to 30 µM, 72 h	–	viability	not toxic
O=C1C(=O)c2[nH]cc3c2C(=C1I)NCC3	HCT-116	cell growth or viability, MTT	72 h	–	CC50	50 µM
N#Cc1ccc(-c2cc(CN3c4ccccc4C=Cc4ccccc43)on2)cc1	BJ	cytotoxicity	–	–	IC50	> 30 µM
CC1(C)C(NC(=O)C(=NOC2(C(=O)O)CC2)c2csc(N)n2)C(=O)N1OS(=O)(=O)O (stereo not drawn)	HCoEpiC normal colon epithelial	–	–	–	CC50	> 100 µM
Fc1ccccc1-c1cc(CN2c3ccccc3C=Cc3ccccc32)on1	BJ	cytotoxicity	–	–	IC50	> 30 µM
O=C1/C(=C/c2cc(Cl)c(O)c(Cl)c2)CNC/C1=C\c1cc(Cl)c(O)c(Cl)c1	PC-12	MTT	range over 3.75 to 60 µM, 24 and 48 h	–	cytotoxicity	not toxic
N#Cc1cccc(/C=C/C(=O)c2ccc(O)cc2)c1	U-87 MG	cell growth, MTT	72 h	–	IC50	5.97 ± 1.5 µM
COc1cc(N2CCN(C(=O)C3CCCN3)CC2)ccc1Nc1ncc(Cl)c(Nc2ccccc2P(C)(C)=O)n1 (stereo not drawn)	Ba/F3 EML4-ALK	cell growth or viability, CCK-8	1 µM, 30 min	–	viability	99% and 97% and 100%
Cc1c2c(=O)n(-c3ccccn3)n(Cc3ccc(N=[N+]=[N-])cc3)c2cc(=O)n1Cc1cccc(Cl)n1	HEp-2	cytotoxicity	48 (unit not given)	–	Hill slope	~-1.14
O=C1C(NCCc2cc(Br)c(O)c(Br)c2)=CC2=NCCc3c[nH]c1c32	HCT-116	cell growth or viability, MTT	72 h	–	CC50	12 µM
Fc1cccc(-c2cc(CN3c4ccccc4C=Cc4ccccc43)on2)c1	BJ	cytotoxicity	–	–	IC50	> 30 µM
CN1CCCNC(=O)c2cccc(c2)C(=O)NCCCN(C)CCCNc2cccc3c2C(=O)c2cccc(c2C3=O)NCCC1	HSC-2	cell growth or viability, CCK-8	15 µM, 48 h	–	viability	4.03%
Clc1ccccc1-c1cc(CN2c3ccccc3C=Cc3ccccc32)on1	BJ	cytotoxicity	–	–	IC50	> 30 µM
COc1ccc(Cn2c3cc(=O)n(Cc4cccc(C(F)(F)F)n4)c(C)c3c(=O)n2-c2ncc(F)cc2F)cc1	HEp-2	–	48 (unit not given)	–	CC50	> 45 µM
Cc1ccc(-c2cc(CN3c4ccccc4C=Cc4ccccc43)on2)cc1	BJ	cell growth or viability	–	–	IC50	21.3 µM
COc1cc([C@@H]2O[C@@H](c3cc(OC)c(O[C@@H]4O[C@H](CO)[C@@H](O)[C@H](O)[C@H]4O)c(OC)c3)[C@H](CO)[C@H]2CO)cc(OC)c1O	differentiating 3T3-L1	–	–	–	non-cytotoxic concentration	1 to 20 µM
N#Cc1ccccc1-c1cc(CN2c3ccccc3C=Cc3ccccc32)on1	BJ	cell growth or viability	–	–	IC50	11.4 µM
COC1=CC2=NCCc3c[nH]c(c32)C1=O	HCT-116	cell growth or viability, MTT	72 h	–	CC50	35 µM

A few entries again:
SMILES	cell line	test	conditions	scale	quantity	result
Fc1cccc(-c2cc(CN3c4ccccc4C=Cc4ccccc43)on2)c1	BJ	cytotoxicity	–	–	IC50	> 30 µM
CN(C)c1ccc(-c2cc(CN3c4ccccc4C=Cc4ccccc43)on2)cc1Cl	BJ	cytotoxicity	–	–	IC50	> 30 µM
COc1ccc(Cn2cc(CCO[C@@H]3O[C@H]4[C@H](OC[C@H]4O)[C@H]3O)nn2)cc1	HCT-116	cytotoxicity, CellTiter-Glo	up to 30 µM, 72 h	–	viability	not toxic
O=C(c1ccc(C23CC(S(F)(F)(F)(F)F)(CO2)C3)cc1)N1CCN(c2ncccn2)CC1	MDCK-LE cells	–	–	–	Papp A-B	32 ×10⁻⁶ cm/s
CN1C/C(=C\c2cc(Cl)c(O)c(Cl)c2)C(=O)/C(=C/c2cc(Cl)c(O)c(Cl)c2)C1	PC-12	MTT	range over 3.75 to 60 µM, 24 and 48 h	–	cytotoxicity	not toxic
